Experimental data of several laboratories.
Each line is one published result; not all experiments were run side by side. Numbers after ± are the reported error.
Sequence of UniProt P45983 (whole entry, looked up): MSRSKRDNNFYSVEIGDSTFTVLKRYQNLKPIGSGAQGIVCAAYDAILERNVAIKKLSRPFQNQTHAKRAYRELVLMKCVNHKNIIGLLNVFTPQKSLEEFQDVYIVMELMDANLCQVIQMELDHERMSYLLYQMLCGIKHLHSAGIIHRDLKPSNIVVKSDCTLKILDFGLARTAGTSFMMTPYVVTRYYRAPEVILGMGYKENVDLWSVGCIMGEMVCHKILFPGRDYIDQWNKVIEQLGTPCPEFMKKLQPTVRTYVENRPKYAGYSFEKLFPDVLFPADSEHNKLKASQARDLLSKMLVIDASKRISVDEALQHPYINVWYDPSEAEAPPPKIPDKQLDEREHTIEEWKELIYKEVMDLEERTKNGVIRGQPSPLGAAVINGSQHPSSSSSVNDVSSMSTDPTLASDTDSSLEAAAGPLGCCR
Sequence of UniProt P10635 (whole entry, looked up): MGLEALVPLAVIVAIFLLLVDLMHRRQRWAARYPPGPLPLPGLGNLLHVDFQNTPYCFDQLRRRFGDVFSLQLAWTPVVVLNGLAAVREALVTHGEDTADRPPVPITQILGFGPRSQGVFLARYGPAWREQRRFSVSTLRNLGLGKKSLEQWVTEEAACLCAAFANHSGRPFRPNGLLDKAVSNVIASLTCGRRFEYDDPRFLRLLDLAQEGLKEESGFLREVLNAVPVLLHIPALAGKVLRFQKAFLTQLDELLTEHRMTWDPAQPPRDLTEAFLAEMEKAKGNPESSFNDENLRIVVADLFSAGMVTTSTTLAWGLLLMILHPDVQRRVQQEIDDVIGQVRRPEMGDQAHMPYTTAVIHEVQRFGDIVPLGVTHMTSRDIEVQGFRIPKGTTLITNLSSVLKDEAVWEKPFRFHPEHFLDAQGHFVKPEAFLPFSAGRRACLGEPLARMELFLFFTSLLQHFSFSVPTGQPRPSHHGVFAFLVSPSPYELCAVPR
Sequence of UniProt P50052 (whole entry, looked up): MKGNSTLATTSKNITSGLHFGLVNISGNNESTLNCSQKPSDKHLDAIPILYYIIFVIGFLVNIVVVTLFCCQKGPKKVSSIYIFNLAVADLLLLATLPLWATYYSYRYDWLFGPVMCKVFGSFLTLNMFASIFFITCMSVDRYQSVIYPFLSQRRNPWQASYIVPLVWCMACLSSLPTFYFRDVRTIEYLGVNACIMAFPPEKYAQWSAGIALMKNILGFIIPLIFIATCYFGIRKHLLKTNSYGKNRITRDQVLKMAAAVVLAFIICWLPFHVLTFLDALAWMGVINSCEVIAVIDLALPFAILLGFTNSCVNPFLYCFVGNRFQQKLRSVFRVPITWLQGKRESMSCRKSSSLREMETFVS
Sequence of UniProt P78368 (whole entry, looked up): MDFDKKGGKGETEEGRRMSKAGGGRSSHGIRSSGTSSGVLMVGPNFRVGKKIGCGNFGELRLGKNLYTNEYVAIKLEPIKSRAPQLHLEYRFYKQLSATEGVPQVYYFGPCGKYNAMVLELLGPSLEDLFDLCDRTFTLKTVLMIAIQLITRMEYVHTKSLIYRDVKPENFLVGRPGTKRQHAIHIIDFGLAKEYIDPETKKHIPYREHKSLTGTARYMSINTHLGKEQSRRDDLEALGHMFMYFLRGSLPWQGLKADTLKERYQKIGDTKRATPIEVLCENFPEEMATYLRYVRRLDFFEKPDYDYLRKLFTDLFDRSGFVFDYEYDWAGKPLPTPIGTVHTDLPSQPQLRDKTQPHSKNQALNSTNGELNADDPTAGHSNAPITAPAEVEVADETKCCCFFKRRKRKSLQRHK

| Structure (SMILES) | tested on | assay | test system | conditions | how to read | measurement | result |
| --- | --- | --- | --- | --- | --- | --- | --- |
| COc1ccc(CNc2ccc3c(c2)S(=O)(=O)C=C3)cc1 | – | – | male C57BL/6 mice | i.p., 10 mg/kg, day 8, repeated dosing | – | spleen weight | 0.123 g |
| CCc1nn(C)c2nc(-c3ccc(C(=O)O)cc3)nc(NCc3ccccc3)c12 | – | – | – | – | – | logP | 5.29 |
| COc1ccccc1-c1n[nH]c2nc(NC3CCN(C(=O)Cc4ccc(F)cc4F)CC3)ncc12 | – | bead binding, competition bead pull-down, refers to: LINJ.29.2420 | Leishmania donovani extract | 10 µM | baseline: vehicle | relative abundance | 1.19 |
| Cn1nc(NS(C)(=O)=O)c2c(Cl)ccc(-n3c([C@H](Cc4cc(F)cc(F)c4)NC(=O)Cn4nc(C(F)F)c5c4C(F)(F)[C@@H]4C[C@H]54)nc4nc(OCCC(F)(F)F)ccc4c3=O)c21 | – | – | human, plasma | oral, 125 mg single dose, powder in bottle, geometric mean | – | AUC(0-inf) | 8460 ng·h/mL |
| Cc1cc(-c2ccc3ccccc3c2)nnc1NCCN1CCN(C)CC1 | Cytochrome P450 2D6 (CYP2D6, Homo sapiens, UniProt P10635) | substrate | recombinant enzyme | 100 nM, 0.5 h | – | remaining compound | 119% |
| O=C1NC2(CC2)COc2ncc(F)cc2[C@H]2COCCN2c2ccn3ncc1c3n2 | – | – | Sprague-Dawley rat, male, serum | oral, 20 mg/kg/day, 4 weeks daily, end of recovery period | – | total cholesterol | 1.2 ± 0.2 mmol/L |
| CS(C)(=O)=Nc1ccc(-c2ccc(-c3nc4cc(O[C@@H]5CO[C@H]6[C@@H]5OC[C@H]6O)[nH]c4cc3F)cc2)cc1 | AGTR2 (Homo sapiens, UniProt P50052) | ligand displacement, radioligand | – | 10 µM | – | inhibition | -6% |
| CSCC[C@H](N)C(=O)N[C@@H](C)C(=O)N[C@@H](Cc1c[nH]c2ccccc12)C(=O)N[C@@H](Cc1c[nH]cn1)C(=O)N[C@@H](CC(=O)O)C(=O)N[C@@H](CC(=O)O)C(=O)N[C@@H](CCC(=O)O)C(=O)N[C@@H](CCC(=O)O)C(=O)N[C@@H](Cc1ccccc1)C(=O)N[C@@H](C)C(=O)N[C@@H](CCCNC(=N)N)C(=O)N[C@@H](CCCNC(=N)N)C(=O)N[C@@H](CCCNC(=N)N)C(=O)N[C@@H](CCCNC(=N)N)C(=O)NCCCCCC(=O)NCCCCC(NC(=O)CCCCCNC(=O)[C@H](CCCNC(=N)N)NC(=O)[C@H](CCCNC(=N)N)NC(=O)[C@H](CCCNC(=N)N)NC(=O)[C@H](CCCNC(=N)N)NC(=O)[C@H](C)NC(=O)[C@H](Cc1ccccc1)NC(=O)[C@H](CCC(=O)O)NC(=O)[C@H](CCC(=O)O)NC(=O)[C@H](CC(=O)O)NC(=O)[C@H](CC(=O)O)NC(=O)[C@H](Cc1c[nH]cn1)NC(=O)[C@H](Cc1c[nH]c2ccccc12)NC(=O)[C@H](C)NC(=O)[C@@H](N)CCSC)C(=O)NCCCCC(NC(=O)C(CCCCNC(=O)CCCCCNC(=O)[C@H](CCCNC(=N)N)NC(=O)[C@H](CCCNC(=N)N)NC(=O)[C@H](CCCNC(=N)N)NC(=O)[C@H](CCCNC(=N)N)NC(=O)[C@H](C)NC(=O)[C@H](Cc1ccccc1)NC(=O)[C@H](CCC(=O)O)NC(=O)[C@H](CCC(=O)O)NC(=O)[C@H](CC(=O)O)NC(=O)[C@H](CC(=O)O)NC(=O)[C@H](Cc1c[nH]cn1)NC(=O)[C@H](Cc1c[nH]c2ccccc12)NC(=O)[C@H](C)NC(=O)[C@@H](N)CCSC)NC(=O)CCCCCNC(=O)[C@H](CCCNC(=N)N)NC(=O)[C@H](CCCNC(=N)N)NC(=O)[C@H](CCCNC(=N)N)NC(=O)[C@H](CCCNC(=N)N)NC(=O)[C@H](C)NC(=O)[C@H](Cc1ccccc1)NC(=O)[C@H](CCC(=O)O)NC(=O)[C@H](CCC(=O)O)NC(=O)[C@H](CC(=O)O)NC(=O)[C@H](CC(=O)O)NC(=O)[C@H](Cc1c[nH]cn1)NC(=O)[C@H](Cc1c[nH]c2ccccc12)NC(=O)[C@H](C)NC(=O)[C@@H](N)CCSC)C(N)=O (stereo partly drawn) | – | – | C57BL/6 mouse female, spine | dose not given, 3 h | baseline: total | mean tissue distribution | 6.74% |
| CC(C)[C@@H]1NC(=O)CNC(=O)[C@H](CC(N)=O)NC(=O)[C@H](CCCNC(=N)N)NC(=O)[C@H](Cc2ccc(O)cc2)NC(=O)[C@H](C(C)C)NC(=O)[C@@H](NC(=O)[C@@H](NC(=O)[C@H](CC(N)=O)NC(=O)[C@H](Cc2c[nH]c3ccccc23)NC(=O)[C@H](C)NC(=O)[C@H](Cc2ccccc2)NC(=O)CNC(=O)[C@H](CCCCN)NC(=O)[C@H](Cc2ccccc2)NC(=O)[C@H](Cc2ccccc2)NC(=O)[C@H](CCCCN)NC(=O)OCC2c3ccccc3-c3ccccc32)C(C)C)CSSC[C@@H](C(=O)N[C@@H](Cc2c[nH]cn2)C(=O)N[C@@H](CCCNC(=N)N)C(=O)N[C@@H](CCCNC(=N)N)C(=O)N[C@@H](C)C(=O)N[C@@H](CC(N)=O)C(N)=O)NC(=O)[C@H](C(C)C)NC(=O)[C@H](CCCNC(=N)N)NC1=O | – | – | ICR mouse | ip, 5 mg/kg | direction not given | group interaction score | 0 |
| CN1Cc2cc(Cl)ccc2-n2c(nnc2C2CCN(c3cccc([18F])n3)CC2)C1 | – | – | C57BL/6 mouse male, thymus | intravenous, dose not given, 5 min, added: blocking agent 10 mg/kg | – | tissue uptake | 3.89 ± 1.55 %ID/g |
| CC[C@H](C)[C@H](NC(=O)[C@H](C)NC(=O)CNC(=O)[C@H](Cc1c[nH]cn1)NC(=O)[C@@H](NC(=O)[C@H](Cc1ccccc1)NC(=O)[C@H](CCCCN)NC(=O)CNC(=O)[C@H](C)NC(=O)[C@H](CCCCN)NC(=O)[C@H](Cc1ccccc1)NC(=O)[C@@H](NC(=O)[C@H](Cc1c[nH]cn1)NC(=O)[C@H](CCCCN)NC(=O)[C@H](Cc1ccccc1)NC(=O)[C@@H](NC(=O)[C@H](CO)NC(=O)CNC(=O)[C@H](Cc1c[nH]c2ccccc12)NC(=O)CNC(=O)[C@H](C)N)[C@@H](C)CC)[C@@H](C)CC)[C@@H](C)CC)C(=O)N[C@@H](CCC(N)=O)C(=O)N[C@@H](C)C(=O)N[C@@H](Cc1c[nH]cn1)C(=O)N[C@@H](CC(N)=O)C(=O)N[C@@H](CC(=O)O)C(N)=O | – | – | zebrafish embryos 28 hpf, E3 medium | 24 h | – | chronic toxic concentration | 5 µM |
| Cc1nc2cccc(OCC(C)(C)C(=O)NC(C)C)c2c(N)c1C(=O)[O-].[Na+] | Escherichia coli | reverse mutation, preincubation | WP2 uvrA | 5.0 mg/plate, with rat liver S9 | – | revertant colonies | 33 ± 2 colonies/plate |
| CC[C@H](C)[C@H](NC(=O)[C@H](CCCCN)NC(=O)CNC(=O)[C@H](CC(C)C)NC(=O)[C@H](Cc1ccccc1)NC(=O)[C@H](CCCCN)NC(=O)[C@H](CO)NC(=O)[C@H](Cc1ccccc1)NC(=O)[C@H](Cc1c[nH]c2ccccc12)NC(=O)[C@H](CCC(N)=O)NC(=O)[C@@H](NC(=O)[C@H](Cc1ccccc1)NC(=O)CCCCCNC(=O)CN1CCN(CC(=O)O)CCN(CC(=O)O)CCN(CC(=O)O)CC1)C(C)C)C(=O)N[C@@H](CCC(=O)O)C(=O)N1CCC[C@H]1C(=O)N[C@@H](CC(=O)O)C(=O)N[C@H](C(=O)N[C@@H](CO)C(=O)N[C@@H](CCC(N)=O)C(=O)N[C@H](C(=O)N[C@@H](CCC(N)=O)C(=O)N[C@@H](CC(=O)O)C(=O)N1CCC[C@H]1C(=O)N[C@@H](CC(N)=O)C(=O)N[C@@H](CC(=O)O)C(=O)N[C@@H](CCC(N)=O)C(=O)N[C@@H](Cc1ccc(O)cc1)C(=O)N[C@@H](CCC(=O)O)C(=O)N1CCC[C@H]1C(=O)N[C@@H](Cc1ccccc1)C(=O)O)C(C)C)C(C)C [copper-64 labelled] | – | – | C57BL/6 mice, male, tumour-free, blood | 2 h | – | tissue uptake | 1.55 ± 0.1 %ID/g |
| CN1CCCCC1C(=O)NC(Cc1ccc(-c2ccccc2)cc1)B(O)O (stereo not drawn) | – | – | male Sprague-Dawley rats, plasma | intravenous, 1 mg/kg, 24 h, citrate ester | – | AUC(0-t) | 1.44 µM·h |
| CC[C@H](C)[C@H](NC(=O)[C@H](Cc1c[nH]c2ccccc12)NC(=O)[C@H](Cc1ccc(O)cc1)NC(=O)[C@H](CCCCN)NC(=O)[C@H](CC(C)C)NC(=O)[C@H](CO)NC(=O)[C@@H](N)Cc1ccccc1)C(=O)N[C@@H](CCCNC(=N)N)C(=O)N[C@@H](Cc1ccc(O)cc1)C(=O)N[C@@H](CCCCN)C(=O)N[C@@H](CCCNC(=N)N)C(=O)N[C@@H](CCC(N)=O)C(=O)NCC(=O)N[C@@H](C)C(=O)N[C@@H](C)C(=O)N[C@@H](CCCNC(=N)N)C(=O)N[C@@H](Cc1ccccc1)C(N)=O | – | reversed-phase UPLC | C18 column, TFA | – | – | elution acetonitrile content | 43.7% |
| CN(C)[C@H]1C[C@@]23CC[C@@]4(O2)C(=CC[C@]2(C)[C@@H](c5ccc6ccncc6c5)CC[C@H]24)C=C3[C@@H](O)[C@@H]1O | CSNK1G2 (Homo sapiens, UniProt P78368) | ATP probe labelling, inhibitor, KiNativ profiling | – | 0.1 µM | – | inhibition | -3.8% |
| Cc1cccc(-c2cccc(C)n2)n1.Cc1cccc(-c2cccc(C)n2)n1.F[P-](F)(F)(F)(F)F.F[P-](F)(F)(F)(F)F.[Ru+2].c1ccc(-c2nc3c4cccnc4c4ncccc4c3[nH]2)cc1 | – | – | aerated acetonitrile | 298 K | baseline: Ru(bpy)3(PF6)2 | singlet oxygen quantum yield | 0.01 |
| O=C1NC(=O)c2c1c1cc(F)c[n+]3c1c1c2c2cc(O)ccc2[n]1[Ru-4]312([N]=C=S)[S+]3CC[S+]1CC[S+]2CC3 (stereo not drawn) | MAPK8 (Homo sapiens, UniProt P45983) | enzyme activity | – | 100 nM, human enzyme, added: 10 µM ATP | baseline: untreated | remaining activity | 103% |

Repeated from above:
| Structure (SMILES) | tested on | assay | test system | conditions | how to read | measurement | result |
| --- | --- | --- | --- | --- | --- | --- | --- |
| CN(C)[C@H]1C[C@@]23CC[C@@]4(O2)C(=CC[C@]2(C)[C@@H](c5ccc6ccncc6c5)CC[C@H]24)C=C3[C@@H](O)[C@@H]1O | CSNK1G2 (Homo sapiens, UniProt P78368) | ATP probe labelling, inhibitor, KiNativ profiling | – | 0.1 µM | – | inhibition | -3.8% |
| O=C1NC(=O)c2c1c1cc(F)c[n+]3c1c1c2c2cc(O)ccc2[n]1[Ru-4]312([N]=C=S)[S+]3CC[S+]1CC[S+]2CC3 (stereo not drawn) | MAPK8 (Homo sapiens, UniProt P45983) | enzyme activity | – | 100 nM, human enzyme, added: 10 µM ATP | baseline: untreated | remaining activity | 103% |
| CSCC[C@H](N)C(=O)N[C@@H](C)C(=O)N[C@@H](Cc1c[nH]c2ccccc12)C(=O)N[C@@H](Cc1c[nH]cn1)C(=O)N[C@@H](CC(=O)O)C(=O)N[C@@H](CC(=O)O)C(=O)N[C@@H](CCC(=O)O)C(=O)N[C@@H](CCC(=O)O)C(=O)N[C@@H](Cc1ccccc1)C(=O)N[C@@H](C)C(=O)N[C@@H](CCCNC(=N)N)C(=O)N[C@@H](CCCNC(=N)N)C(=O)N[C@@H](CCCNC(=N)N)C(=O)N[C@@H](CCCNC(=N)N)C(=O)NCCCCCC(=O)NCCCCC(NC(=O)CCCCCNC(=O)[C@H](CCCNC(=N)N)NC(=O)[C@H](CCCNC(=N)N)NC(=O)[C@H](CCCNC(=N)N)NC(=O)[C@H](CCCNC(=N)N)NC(=O)[C@H](C)NC(=O)[C@H](Cc1ccccc1)NC(=O)[C@H](CCC(=O)O)NC(=O)[C@H](CCC(=O)O)NC(=O)[C@H](CC(=O)O)NC(=O)[C@H](CC(=O)O)NC(=O)[C@H](Cc1c[nH]cn1)NC(=O)[C@H](Cc1c[nH]c2ccccc12)NC(=O)[C@H](C)NC(=O)[C@@H](N)CCSC)C(=O)NCCCCC(NC(=O)C(CCCCNC(=O)CCCCCNC(=O)[C@H](CCCNC(=N)N)NC(=O)[C@H](CCCNC(=N)N)NC(=O)[C@H](CCCNC(=N)N)NC(=O)[C@H](CCCNC(=N)N)NC(=O)[C@H](C)NC(=O)[C@H](Cc1ccccc1)NC(=O)[C@H](CCC(=O)O)NC(=O)[C@H](CCC(=O)O)NC(=O)[C@H](CC(=O)O)NC(=O)[C@H](CC(=O)O)NC(=O)[C@H](Cc1c[nH]cn1)NC(=O)[C@H](Cc1c[nH]c2ccccc12)NC(=O)[C@H](C)NC(=O)[C@@H](N)CCSC)NC(=O)CCCCCNC(=O)[C@H](CCCNC(=N)N)NC(=O)[C@H](CCCNC(=N)N)NC(=O)[C@H](CCCNC(=N)N)NC(=O)[C@H](CCCNC(=N)N)NC(=O)[C@H](C)NC(=O)[C@H](Cc1ccccc1)NC(=O)[C@H](CCC(=O)O)NC(=O)[C@H](CCC(=O)O)NC(=O)[C@H](CC(=O)O)NC(=O)[C@H](CC(=O)O)NC(=O)[C@H](Cc1c[nH]cn1)NC(=O)[C@H](Cc1c[nH]c2ccccc12)NC(=O)[C@H](C)NC(=O)[C@@H](N)CCSC)C(N)=O (stereo partly drawn) | – | – | C57BL/6 mouse female, spine | dose not given, 3 h | baseline: total | mean tissue distribution | 6.74% |
